# Assay results from different studies.
# Every numbered part comes from another study and shows a few of its results, in no order. Substitutions count along the parent as printed.

# Sample 1
# Target: CCNB2, cyclin fold, Cln2 fusion (human)
# Method: yeast growth competition, sequencing
# Medium: yeast
# Notes: strong parent motif
# Relative to: not given
# Reading: higher = stronger binding
# Starting sequence: BRCA2 docking peptide (human); PSIKRNLLNEFDR
Change,normalised enrichment score
I3F,0.82
D12H,1.88
F11V,0.69
I3W,0.953
S2H,2.46
R5P,0.111
F11T,0.0125
L8W,1.32
R13D,4.38
N6K,1.54
N9Q,3.79
R5Q,1.32
L7A,-0.121
R13K,3.57
E10L,0.517
K4V,3.71
I3S,0.805
E10N,0.614
R5A L7A,0.184
D12W,1.22
N6P,0.649
I3C,3.4
N9D,4.12
E10H,0.986
N9Y,4.47

# Sample 2
# Target: Interferon regulatory factor 7, full length, phosphomimetic (IRF7, Homo sapiens, UniProt Q92985, residues 1-503, S101K/S471D/S472D/S475D/S476D/S477D/S483D/S484D/S487D)
# Method: protein-binding microarray
# Form: double-stranded DNA, one strand shown
# Medium: in vitro
# Concentration: 250 nM
# Notes: 60-bp whole probe
# Together with: salmon DNA 0.4 mg/ml
# Relative to: random background probes
# Reading: higher = stronger binding
# Shared flanks, not repeated: GCCTAGCAC … GTCTTGATTCGCTTGACGCTGCTG
# Residues (chain): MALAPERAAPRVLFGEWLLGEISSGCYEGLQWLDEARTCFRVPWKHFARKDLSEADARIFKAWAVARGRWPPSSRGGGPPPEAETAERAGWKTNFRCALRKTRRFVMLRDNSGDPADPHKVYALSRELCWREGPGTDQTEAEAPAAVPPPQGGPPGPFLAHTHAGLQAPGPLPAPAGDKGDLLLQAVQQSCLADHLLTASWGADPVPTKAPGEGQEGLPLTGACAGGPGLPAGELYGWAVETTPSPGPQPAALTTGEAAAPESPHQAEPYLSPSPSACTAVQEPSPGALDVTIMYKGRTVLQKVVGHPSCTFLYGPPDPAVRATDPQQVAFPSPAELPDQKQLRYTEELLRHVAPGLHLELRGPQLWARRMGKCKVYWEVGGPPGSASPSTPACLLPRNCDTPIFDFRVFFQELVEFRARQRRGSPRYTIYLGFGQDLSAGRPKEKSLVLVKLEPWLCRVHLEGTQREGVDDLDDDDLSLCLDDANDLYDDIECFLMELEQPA
Strand,log fluorescence [z-score]
GACGAACTGGGACTGGAGACGTGCTAG,-0.453
CCCCCAGGATTCAATTACCAGTGCTAG,-0.345
TGTCCTGTCTACATGGGTGTGTGCTAG,0.406
GACGATATCGGGACTGGGGACGTGCTA,-0.185
GACGAGATCAGTATCGAGACGTGCTAG,-0.348
GACGGTATCGGGACTGGCGACGTGCTA,-0.367
TTAGAACTGGGGTATCGATTAGTGCTA,0.366
TCATGTCTGTTTTTGCTACTGTGCTAG,0.34
TTAGCTTTCGGGTATCGGTTAGTGCTA,1.51
TTAGGATTGCTACTGCTTTAGTGCTAG,-0.496
GACGGTTTCGACTTTCGGGAAGTGCTA,11.3
GACGGTTTCATTTCCCTGACGTGCTAG,5.66
TTATATATCGGGTTTCGATTAGTGCTA,7.43
TTAGAACTGGGGTTTCGAATAGTGCTA,1.99
TTAGGTTTCGTGTTTCGGTTAGTGCTA,11.4

# Sample 3
# Target: ABI1, truncated, D143A, DHFR fusion (Arabidopsis thaliana, UniProt P49597)
# Method: DHFR PCA, dose-response
# Medium: yeast
# Notes: Hill fit, mean, not affinity
# Together with: (+)-ABA, dose series
# Reading: lower = more sensitive
# Starting sequence: PYL1, truncated, DHFR fusion (Arabidopsis thaliana, UniProt Q8VZS8); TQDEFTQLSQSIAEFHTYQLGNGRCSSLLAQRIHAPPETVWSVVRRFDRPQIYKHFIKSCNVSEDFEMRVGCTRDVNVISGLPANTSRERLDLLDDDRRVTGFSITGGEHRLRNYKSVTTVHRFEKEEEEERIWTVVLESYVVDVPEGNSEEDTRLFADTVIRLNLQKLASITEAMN
Change,ABA EC50
I79P,171 µM
G107W,273 µM
T1E,1.19 µM
Q7I,2.7 µM
H55G,0.585 µM
L94H,6.28 µM
E174A,12.6 µM
P36Y,19.6 µM
L94M,4.85 µM
R98Y,38.4 µM
A158S,15.4 µM
R123S,2.19 µM
T17C,8.89 µM
R69V,1.89 µM
P37M,31.8 µM

# Further values, each from its own experiment
Molecule,target,test,system,setting,how to read,measurement,result
"PhoQ, residues 284 288 289 292 302 303 AMDMFI","PhoP, residues 12 14 15 18 19 NHTVL (Escherichia coli, UniProt P23836)","Sort-seq, refers to: YFP reporter",E. coli,"PhoQ-PhoP variant library, together with: 10 µM Mg2+","relative to: high Mg2+ state, higher = stronger signaling",fold induction,0.569

# Excerpt of the above (sample 1):
Change,normalised enrichment score
R13D,4.38
N6K,1.54
N9Q,3.79
R5Q,1.32
L7A,-0.121
R13K,3.57
E10L,0.517
